Measured values of several laboratories.
“And” joins repeats or separate records; there may be more than shown. ± marks the error that the study gave.

SMILES	assay	test system	setting	measurement	value
CC[C@H](C)[C@H](NC(=O)[C@@H](NC(=O)[C@H](CCCCN)NC(=O)[C@@H](NC(=O)CNC(=O)[C@@H](N)CCCNC(=N)N)[C@@H](C)O)C(C)C)C(=O)N[C@@H](CC(C)C)C(=O)N[C@@H](Cc1c[nH]cn1)C(=O)N[C@@H](CC(C)C)C(N)=O	LC-MS	pronase digest	200 µM, 1 h, pH 7.5, 37 °C, with: pronase 2.5 µg/mL	remaining intact peptide	0%
C[C@H](NCc1ccc(-c2ccc(C(F)(F)F)cc2)cc1)C(N)=O	–	rat liver microsomes	1 µM, 30 min	remaining compound	59.5%
C=CCN1CCC23c4c5ccc(OC(=O)c6ccc(NC(=O)OC(C)(C)C)cc6)c4OC2C(=O)CCC3(O)C1C5 (stereo not shown)	–	rat plasma	0.5 h, with: loperamide 100 µM	remaining compound	80.4% and 62.2% and 67.9%
CCN(CC)CCOc1ccc(-c2nnn(Cc3ccc(OC)cc3)c2N)cc1	–	mouse liver microsomes	concentration not given, time not given	remaining compound	57.2%
C=CCN1CCC23c4c5ccc(OC(=O)c6ccccc6)c4OC2C(=O)CCC3(O)C1C5 (stereo not shown)	–	rat plasma	0.5 h, with: loperamide 100 µM	remaining compound	13.1% and 11% and 11.7%
Cc1nnc(-c2ccc(CC(=O)NCCCC[C@H](NC(=O)c3ccc(OCc4ccc(B(O)O)cc4)c(-c4nc5ccccc5c(=O)[nH]4)c3)C(=O)NCC(=O)NCC(=O)NCC(=O)N[C@@H](Cc3ccccc3)C(=O)N[C@@H](Cc3ccccc3)C(=O)O)cc2)nn1	UPLC-MS/MS	human serum	100 µM, 1 h, 37 °C	remaining compound	83.3% and 90.4%
C#Cc1c(F)ccc2cc(O)cc(-c3ncc4c(N5CC6CCC(C5)N6C(=O)OC(C)OC(=O)CC5CCOCC5)nc(OC[C@@]56CCCN5C[C@H](F)C6)nc4c3F)c12 (stereo partly shown)	–	simulated gastric fluid	1 µM, 30 min, 37 °C	remaining prodrug	103%
CSCC[C@@H]1NC(=O)[C@H](Cc2ccccc2)NC(=O)CNC(=O)[C@H](NC(=O)[C@@H](N)Cc2ccc(O)cc2)CSSC[C@H](C(=O)N[C@@H](Cc2c[nH]c3ccccc23)C(=O)NCc2cc(C(F)(F)F)cc(C(F)(F)F)c2)NC(=O)[C@@H]2CCCN2C1=O	–	rat plasma	24 h, 37 °C	remaining intact peptide	70 ± 1%
CC(C)[C@@H]1NC(=O)CNC(=O)[C@H](CC(N)=O)NC(=O)[C@H](CCCNC(=N)N)NC(=O)[C@H](Cc2ccc(O)cc2)NC(=O)[C@H](C(C)C)NC(=O)[C@@H](NC(=O)[C@@H](NC(=O)[C@H](CC(N)=O)NC(=O)[C@H](Cc2c[nH]c3ccccc23)NC(=O)[C@H](C)NC(=O)[C@H](Cc2ccccc2)NC(=O)CNC(=O)[C@H](CCCCN)NC(=O)[C@H](Cc2ccccc2)NC(=O)[C@H](Cc2ccccc2)NC(=O)[C@H](CCCCN)NC(=O)OCC2c3ccccc3-c3ccccc32)C(C)C)CSSC[C@@H](C(=O)N[C@@H](Cc2c[nH]cn2)C(=O)N[C@@H](CCCNC(=N)N)C(=O)N[C@@H](CCCNC(=N)N)C(=O)N[C@@H](C)C(=O)N[C@@H](CC(N)=O)C(N)=O)NC(=O)[C@H](C(C)C)NC(=O)[C@H](CCCNC(=N)N)NC1=O	HPLC	mouse kidney homogenate	2560 µM, 2.00 h, 37 °C, 50 mg/mL tissue	remaining peptide	78.4% and 82.2%
C#Cc1c(F)ccc2cc(O)cc(-c3ncc4c(N5CC6CCC(C5)N6C(=O)OC(C)OC(=O)C(CCCC)CCCCCC)nc(OC[C@@]56CCCN5C[C@H](F)C6)nc4c3F)c12 (stereo partly shown)	–	simulated gastric fluid	1 µM, 30 min, 37 °C	remaining prodrug	107%

Excerpt of the above:
SMILES	assay	test system	setting	measurement	value
CC(C)[C@@H]1NC(=O)CNC(=O)[C@H](CC(N)=O)NC(=O)[C@H](CCCNC(=N)N)NC(=O)[C@H](Cc2ccc(O)cc2)NC(=O)[C@H](C(C)C)NC(=O)[C@@H](NC(=O)[C@@H](NC(=O)[C@H](CC(N)=O)NC(=O)[C@H](Cc2c[nH]c3ccccc23)NC(=O)[C@H](C)NC(=O)[C@H](Cc2ccccc2)NC(=O)CNC(=O)[C@H](CCCCN)NC(=O)[C@H](Cc2ccccc2)NC(=O)[C@H](Cc2ccccc2)NC(=O)[C@H](CCCCN)NC(=O)OCC2c3ccccc3-c3ccccc32)C(C)C)CSSC[C@@H](C(=O)N[C@@H](Cc2c[nH]cn2)C(=O)N[C@@H](CCCNC(=N)N)C(=O)N[C@@H](CCCNC(=N)N)C(=O)N[C@@H](C)C(=O)N[C@@H](CC(N)=O)C(N)=O)NC(=O)[C@H](C(C)C)NC(=O)[C@H](CCCNC(=N)N)NC1=O	HPLC	mouse kidney homogenate	2560 µM, 2.00 h, 37 °C, 50 mg/mL tissue	remaining peptide	78.4% and 82.2%
